# Experimental data pooled from the literature.
# Each numbered part is a random draw from the data of one study; scales do not carry over between parts. Substitutions count along the parent as printed.
# Sequence of UniProt P50406 (whole entry, looked up): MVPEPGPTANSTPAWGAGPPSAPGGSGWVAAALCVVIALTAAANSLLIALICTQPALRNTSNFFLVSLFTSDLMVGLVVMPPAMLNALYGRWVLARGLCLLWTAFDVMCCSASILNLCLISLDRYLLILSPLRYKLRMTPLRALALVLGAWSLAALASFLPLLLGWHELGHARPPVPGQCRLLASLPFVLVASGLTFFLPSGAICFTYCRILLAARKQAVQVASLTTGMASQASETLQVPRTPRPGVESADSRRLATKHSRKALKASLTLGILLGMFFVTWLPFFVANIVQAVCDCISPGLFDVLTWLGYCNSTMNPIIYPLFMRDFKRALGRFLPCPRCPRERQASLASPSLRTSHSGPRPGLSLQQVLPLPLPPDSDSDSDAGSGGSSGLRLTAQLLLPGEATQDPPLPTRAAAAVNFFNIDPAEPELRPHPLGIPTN

# Block 1 — method: universal PBM; form: double-stranded DNA, one strand shown; medium: in vitro; concentration: 600 nM; reading: higher = stronger binding
# Target: Sal-like protein 4, full length isoform A (SALL4, Homo sapiens, UniProt Q9UJQ4, residues 1-1053)
# Sequence of UniProt Q9UJQ4 (whole entry, looked up): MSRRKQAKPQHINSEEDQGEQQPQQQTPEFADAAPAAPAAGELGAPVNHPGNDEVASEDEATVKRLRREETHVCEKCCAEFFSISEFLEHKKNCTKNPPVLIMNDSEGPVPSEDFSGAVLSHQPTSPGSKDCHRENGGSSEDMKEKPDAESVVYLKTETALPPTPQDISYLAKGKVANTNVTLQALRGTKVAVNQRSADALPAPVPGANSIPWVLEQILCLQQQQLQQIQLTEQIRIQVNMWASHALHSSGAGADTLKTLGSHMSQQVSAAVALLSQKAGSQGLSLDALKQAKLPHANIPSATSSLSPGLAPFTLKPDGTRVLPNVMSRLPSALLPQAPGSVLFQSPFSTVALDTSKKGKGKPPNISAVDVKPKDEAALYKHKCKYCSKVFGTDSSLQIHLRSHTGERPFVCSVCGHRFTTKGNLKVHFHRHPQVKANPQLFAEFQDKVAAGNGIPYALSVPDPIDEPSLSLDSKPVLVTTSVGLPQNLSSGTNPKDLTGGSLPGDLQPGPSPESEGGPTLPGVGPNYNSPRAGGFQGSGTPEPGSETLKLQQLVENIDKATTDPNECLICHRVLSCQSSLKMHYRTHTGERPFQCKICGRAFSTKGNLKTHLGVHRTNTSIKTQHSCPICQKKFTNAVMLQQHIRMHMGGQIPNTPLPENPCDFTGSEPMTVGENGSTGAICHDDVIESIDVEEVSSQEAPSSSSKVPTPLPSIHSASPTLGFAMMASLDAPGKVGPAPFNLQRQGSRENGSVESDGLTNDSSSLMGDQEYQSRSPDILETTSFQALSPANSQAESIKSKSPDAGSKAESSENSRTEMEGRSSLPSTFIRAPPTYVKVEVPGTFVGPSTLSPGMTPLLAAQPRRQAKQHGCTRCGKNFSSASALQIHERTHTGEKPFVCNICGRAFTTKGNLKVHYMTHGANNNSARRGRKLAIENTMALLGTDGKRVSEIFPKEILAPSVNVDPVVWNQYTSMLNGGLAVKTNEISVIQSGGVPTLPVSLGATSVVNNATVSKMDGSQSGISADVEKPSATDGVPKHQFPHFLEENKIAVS
# Notes: 8-mer, flanks averaged, mean of replicates
Oligonucleotide,E-score
CTTGTACC,-0.00556
AGTTGTGA,0.209
CGGATTAC,-0.0347
ACGGTGAA,0.114
ACTCAAAG,0.0542
GTTAGTTA,0.259
CTAGGCGC,-0.214
CGAAGCGC,-0.251

# Block 2 — method: DHFR PCA, dose-response; medium: yeast; with: (+)-ABA, dose series; reading: lower = more sensitive
# Target: ABI1, truncated, D143A, DHFR fusion (Arabidopsis thaliana, UniProt P49597)
# Notes: Hill fit, not affinity, not high confidence
# Starting sequence: PYL1, truncated, DHFR fusion (Arabidopsis thaliana, UniProt Q8VZS8); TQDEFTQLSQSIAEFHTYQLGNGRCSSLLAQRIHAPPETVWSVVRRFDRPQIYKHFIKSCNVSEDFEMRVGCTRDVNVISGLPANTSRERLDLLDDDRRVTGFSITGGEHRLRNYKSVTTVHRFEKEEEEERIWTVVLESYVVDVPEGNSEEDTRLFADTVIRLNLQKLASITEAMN
Change,ABA EC50 [µM]
I33H,554
L91A,705
D48H,86.4
V121H,173
L112N,13.1
L169K,4.04
S140H,1100
F47T,41

# Block 3 — target: CREB5, bZIP domain (human); method: DHFR protein complementation; medium: yeast; relative to: wild-type JUN-FOS pair; reading: higher = stronger binding
# Notes: single substitutions, most at no-binding floor
# Starting sequence: JUN, bZIP domain (human); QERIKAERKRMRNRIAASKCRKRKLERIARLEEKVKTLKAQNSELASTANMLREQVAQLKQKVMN; partner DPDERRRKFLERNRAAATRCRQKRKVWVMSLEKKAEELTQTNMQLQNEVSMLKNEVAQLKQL
Change,binding fitness [natural log]
K39E,-0.0627
A29I,-0.273
M51V,-0.356
E44P,-1.39
E54F,-0.791
L52P,-1.4
L45R,-1.36
N42V,-1.07

# Further values, each from its own experiment
Structure (SMILES),target,observed,concentration,quantity,value
C[C@H](c1ccc(F)cc1)N(Cc1cccc(C(=O)O)c1)C(=O)c1cnc2ccccc2c1,"5-hydroxytryptamine receptor 6 (HTR6, Homo sapiens, UniProt P50406)",ligand displacement,10 µM,inhibition,3.57%

# For quick reference, copied from above (block 2):
Change,ABA EC50 [µM]
L169K,4.04
S140H,1100
